Measurements pooled from the literature.
Compare with care: the assays were run in different laboratories. Values joined by “and” are separate records of one study, mostly repeats; a detail may differ. Numbers after ± are the reported error.
GAP50: Glideosome-associated protein 50 (GAP50, Plasmodium falciparum, UniProt Q8I2X3)
Kir3.1/Kir3.2: Kir3.1/Kir3.2 (Homo sapiens, UniProt P48051+P48549)
TRPM8: Transient receptor potential cation channel subfamily M member 8 (TRPM8, Homo sapiens, UniProt Q7Z2W7)
FFAR4: Free fatty acid receptor 4 (FFAR4, Homo sapiens, UniProt Q5NUL3)
Maoa: Amine oxidase [flavin-containing] A (Maoa, Rattus norvegicus, UniProt P21396)
NADH dehydrogenase [ubiquinone] iron-sulfur protein 7, mitochondrial/NADH dehydrogenase [ubiquinone] iron-sulfur protein 2, mitochondrial/MT-ND1: NADH dehydrogenase [ubiquinone] iron-sulfur protein 7, mitochondrial/NADH dehydrogenase [ubiquinone] iron-sulfur protein 2, mitochondrial/MT-ND1 (Homo sapiens, UniProt O75251+O75306+P03886)

| SMILES | target | assay | test system | conditions | scale | quantity | value |
| --- | --- | --- | --- | --- | --- | --- | --- |
| Cc1n[nH]c(CC(=O)N2Cc3c(-c4ccc(C(=O)N5CCCc6ccccc65)cc4)cnn3C[C@H]2C)n1 | E3 ubiquitin-protein ligase parkin (PRKN, Human, UniProt O60260) | nanoDSF | – | 200 µM | relative to: DMSO | ΔTm | -1.3 °C |
| CC(C)(c1cc(N)c(O)c(N)c1)c1cc(N)c(O)c(N)c1 | Sarcoplasmic/endoplasmic reticulum calcium ATPase 1 (ATP2A1, Oryctolagus cuniculus, UniProt P04191) | ATPase activity | rabbit microsomes | concentration not given, pH 7.3, with: ATP 5 mM | – | SERCA1 inhibition | inactive |
| c1ccc(Oc2ccc(-c3cc(C4CCOCC4)[nH]n3)cc2)cc1 | GAP50 | binding, surface plasmon resonance | – | 1:1 binding model | – | kon | 1360 M⁻¹ s⁻¹ |
| COc1cc2c(cc1OC)CN(CCCNC(=O)c1ccc(C(=O)c3ccc([N+](=O)[O-])cc3)cc1)CC2 | Sigma intracellular receptor 2 (TMEM97, Homo sapiens, UniProt Q5BJF2) | radioligand binding | RT-4 cell membranes | – | relative to: sigma1 Ki over sigma2 Ki | Ki ratio | > 8.31 |
| Cc1ccc(C(=O)Nc2ccc(S(=O)(=O)O)c3cc(S(=O)(=O)O)cc(S(=O)(=O)O)c23)cc1NC(=O)c1cccc(NC(=O)Nc2cccc(C(=O)Nc3cc(C(=O)Nc4ccc(S(=O)(=O)O)c5cc(S(=O)(=O)O)cc(S(=O)(=O)O)c45)ccc3C)c2)c1 | GAP50 | binding, surface plasmon resonance | – | 1:1 binding model | – | kon | 1010 M⁻¹ s⁻¹ |
| CCOc1nc2cccc(C(=O)O)c2n1Cc1ccc(-c2ccccc2-c2nnn[nH]2)cc1 | Neutrophil gelatinase-associated lipocalin (LCN2, Homo sapiens, UniProt P80188, C107S) | NMR line shape analysis | – | three-state model, state 1 | – | koff | 119 ± 2 s⁻¹ |
| COC(=O)c1cn(C)c2ccc(-c3cccnc3)cc12 | Nuclear receptor subfamily 4 group A member 2 (Homo sapiens, UniProt P43354) | reporter gene, full-length homodimer NurRE reporter | – | 10 µM | relative to: vehicle | activation | 0.96 fold |
| Nc1nc2c(ncn2[C@@H]2O[C@H](COP(=O)(O)O)[C@@H](O)[C@H]2O)c(=O)[nH]1 | GUK1 (Homo sapiens, UniProt Q16774) | enzyme activity, NADH-coupled | – | 125 µM, with: NaCl 50 mM | – | reaction velocity | 0.0663 µM/s and 0.0811 µM/s and 0.104 µM/s |
| CCc1cc(NC(=O)COc2ccc(Cl)cc2Cl)n(C2CCC(F)(F)CC2)n1 | Kir3.1/Kir3.2 | thallium flux, activator | HEK293 | – | relative to: standard compound | Emax | 83% |
| NCCNc1ncc(C(N)=O)c(Nc2cccc(C(F)(F)F)c2)n1 | TRPM8 | antagonist | HEK293 | 5 µM | relative to: control | remaining activity | 109 ± 3.83% |
| O=c1[nH]c(NCCc2ccc(Br)cc2)c(Br)c(=O)[nH]1 | FFAR4 | antagonist, β-arrestin recruitment | CHO cells | 10 µM | – | inhibition | 14 ± 5% |
| NC(Cc1cc(I)c(Oc2cc(I)c(O)c(I)c2)c(I)c1)C(=O)O (stereo not drawn) | Thyroxine 5-deiodinase (DIO3, Homo sapiens, UniProt P55073, T169S) | substrate | – | concentration not given, 10 min | relative to: DMSO control | deiodinase activity | 97.9% |
| Nc1ncnc2c1ncn2[C@@H]1O[C@H](COP(=O)(O)CP(=O)(O)OP(=O)(O)O)[C@@H](O)[C@H]1O | P2X purinoceptor 1 (P2RX1, Homo sapiens, UniProt P51575, K136A) | calcium influx | – | 316 nM | relative to: ionomycin response | calcium influx | 94% and 90.5% and 89.1% |
| Nc1ncnc2c1ncn2[C@@H]1O[C@H](COP(=O)(O)OP(=O)(O)NP(=O)(O)O)[C@@H](O)[C@H]1O | P2X purinoceptor 3 (P2RX3, Homo sapiens, UniProt P56373) | ion current, agonist, patch clamp | HEK293 | 1 µM | – | current ratio Mg2+-bound over free | 0.0922 ± 0.0307 |
| NCc1ccc(C(F)(F)F)cc1 | Maoa | substrate | rat | pH 9.0, α,α-protio substrate | – | kcat | 13.5 ± 0.183 s⁻¹ |
| NC(=O)NOCCCCCCCCCCCCCCCC[P+](c1ccccc1)(c1ccccc1)c1ccccc1.O=C([O-])C(F)(F)F | NADH dehydrogenase [ubiquinone] iron-sulfur protein 7, mitochondrial/NADH dehydrogenase [ubiquinone] iron-sulfur protein 2, mitochondrial/MT-ND1 | complex I-dependent respiration, Seahorse XF96 | HCT-116 | 0.03 µM, 24 h | relative to: control | oxygen consumption rate | 94.4 ± 2.33% |
| O=S(=O)(O)C1CCNCC1 | Sodium- and chloride-dependent taurine transporter (SLC6A6, Homo sapiens, UniProt P31641, Y138A) | binding, microscale thermophoresis | – | 46.3 nM, fitted curve | higher = more binding | fraction bound | 0 |
| O=C1O/C(=C\c2cc(F)ccc2OCCCN2CCOCC2)c2cc(Cc3cccc(F)c3)[nH]c(=O)c21 | Dual specificity calcium/calmodulin-dependent 3',5'-cyclic nucleotide phosphodiesterase 1C, isoform PDE1C2 (PDE1C, Homo sapiens, UniProt Q14123) | enzyme activity, inhibitor | – | with: 3H-cGMP substrate | – | binding free energy | -11 kcal/mol |
| CC(C)(C)c1ccc(CCNc2cc(=O)[nH]c(=O)[nH]2)cc1 | FFAR4 | agonist, β-arrestin recruitment | CHO cells | 10 µM | relative to: 30 µM TUG-891 | agonist effect | -1 ± 1% |
| CC[C@@H]1[C@H](F)C(=O)N[C@@H]1COc1nccc2cc(C(N)=O)c(OC)cc12 | Cyclin-dependent kinase 9 (CDK9, Homo sapiens, UniProt P50750) | ATP-site probe binding, ActivX profiling | THP-1 cell lysate | 0.04 mM, Lys2 site | – | inhibition | 0.9% |
| COc1ccc(OC)c(NC(=O)N2CCOc3ccc(C)cc32)c1 | 3-oxoacyl-[acyl-carrier-protein] reductase FabG (fabG, Pseudomonas aeruginosa, UniProt O54438) | enzyme activity, inhibitor, NADPH fluorescence | – | reverse reaction, with: 3-OH-decanoyl-NAC, NADP | – | Hill slope | 1.5 |

| SMILES | target | assay | test system | conditions | scale | quantity | value |
| --- | --- | --- | --- | --- | --- | --- | --- |
| Ic1ccc(N2CCN(Cc3c[nH]c4ncccc34)CC2)cc1 | D(2) dopamine receptor (Drd2, Rattus norvegicus, UniProt P61169) | forskolin-stimulated cAMP, agonist, AlphaScreen | HEK293 expressing D2 | concentration not given, with: forskolin | – | cAMP decrease | 42 ± 9.2% |
| NC/C(=C\F)COc1cccc(Cn2c(=S)[nH]c(=O)c3[nH]cnc32)c1 | Myeloperoxidase (MPO, Homo sapiens, UniProt P05164) | H2O2 consumption, inhibitor, H2O2 electrode | – | 10 µM, 0 s | – | H2O2 concentration | -35.3 µM |
| O=C1NC(=O)c2c1c1c3ccccc3[nH]c1n1cncc21 | TRPM8 | antagonist | HEK293 | 5 µM | relative to: control | remaining activity | 99.3 ± 3.15% |
| CC(=O)N[C@@H](CSC(=O)[C@]1([C@@H](O)C(C)C)NC(=O)[C@H](C)[C@@H]1O)C(=O)O | Proteasome subunit beta type-5 (Psmb5, Rattus norvegicus, UniProt P28075) | – | RIN-m5F | concentration not given, 24 h, with: Suc-LLVY-AMC | relative to: control | proteasome activity | decreased |
| O=c1cc(NCCc2cccc(F)c2)[nH]c(=O)[nH]1 | FFAR4 | agonist, β-arrestin recruitment | CHO cells | 10 µM | relative to: 30 µM TUG-891 | agonist effect | 0% |
| NCc1ccccc1 | Maoa | kcat/Km ascending limb free E S, substrate | – | pH 6.5-9.5 | – | pKa1 | 8.3 ± 0.1 |
| O=c1nc(SCc2cc(F)cc(C(F)(F)F)c2)nc(SCc2ccc3nc(Cl)ccc3c2)[nH]1 | DNA topoisomerase 2-alpha (TOP2A, Homo sapiens, UniProt P11388) | DNA cleavage, competition with etoposide | – | 7.8 µM, with: etoposide 50 µM | – | linear DNA | 17% and 16.7% |
| O=C(NCc1ccc(CNS(=O)(=O)c2ccccc2)cc1)c1ccccc1 | C-X-C chemokine receptor type 4 (CXCR4, Homo sapiens, UniProt P61073) | binding, inhibitor, competitive binding | MDA-MB-231 | with: biotinylated TN14003 | – | EC | 1 nM |
| Nc1ncnc2c1nc(Sc1ccc(Cl)cc1)n2[C@@H]1O[C@@H]2COP(=O)(O)O[C@H]2[C@H]1O | anti-cAMP antibody | antibody binding, competitive cAMP EIA | – | concentration not given, acetylated samples | relative to: EC50 cAMP over EC50 cpd, higher = stronger binding | relative binding affinity | 0.0005 |
| c1ccc(C(NCc2cccnc2)(c2ccccc2)c2ccccc2)cc1 | Potassium voltage-gated channel subfamily KQT member 1, with KCNE1 (KCNQ1, Homo sapiens, UniProt P51787) | IKs activation | – | 100 pM, with KCNE1 | – | G-V slope factor | 28 ± 3 mV |
| NC(=O)c1ccc[n+]([C@@H]2O[C@H](COP(=O)([O-])OP(=O)(O)OC[C@H]3O[C@@H](n4cnc5c(NCCNC(=O)CCCCCNC(=O)CCCCCNC(=O)CCCC[C@@H]6SC[C@@H]7NC(=O)N[C@@H]76)ncnc54)[C@H](O)[C@@H]3O)[C@@H](O)[C@H]2O)c1 | Protein mono-ADP-ribosyltransferase PARP16 (PARP16, Homo sapiens, UniProt Q8N5Y8) | substrate, DELFIA auto-modification | – | – | – | apparent Km | 36 µM |
| CCc1cc(NC(=O)COc2cc(Cl)ccc2Cl)n(C2CCOCC2)n1 | Kir3.1/Kir3.2 | thallium flux, activator | HEK293 | – | relative to: standard compound | Emax | 85% |
| Nc1nc2c(F)cccc2[nH]1 | Voltage-gated hydrogen channel 1 (HVCN1, Homo sapiens, UniProt Q96D96, F150A) | proton current, inhibitor, inside-out patch clamp | – | – | – | Hill coefficient | 0.93 ± 0.03 |
| CCCCC[C@H](O)/C=C/[C@H]1[C@H](O)CC(=O)[C@@H]1C/C=C\CCCC(=O)O | Prostaglandin E2 receptor EP1 subtype (PTGER1, Homo sapiens, UniProt P34995, Q298A) | IP1 accumulation, agonist | AD293 | 1 h, EP1 Q298A mutant | – | Emax | 40.5 ± 6.34% |
| CCCCCCCCNc1[nH]c(=O)[nH]c(=O)c1N=O | FFAR4 | antagonist, β-arrestin recruitment | CHO cells | 10 µM | – | inhibition | 26 ± 4% |
| C[C@@H](O)[C@@H](CO)NC(=O)[C@@H](CCCNC(=N)N)NC(=O)[C@@H]1CCCN1C(=O)[C@@H]1CSSC[C@H](NC(=O)[C@H](Cc2ccccc2)NC(=O)CN2CCN(CC(=O)O)CCN(CC(=O)O)CCN(CC(=O)O)CC2)C(=O)N[C@@H](Cc2ccc(O)cc2)C(=O)N[C@@H](Cc2ccccc2)C(=O)N[C@@H](CCC(N)=O)C(=O)N[C@@H](CC(N)=O)C(=O)N1 [gallium-68 labelled] | Vasopressin V1b receptor (AVPR1B, Homo sapiens, UniProt P47901) | receptor binding, radioimmunoassay | – | concentration not given, with: vasopressin V1b 125 nM | – | binding | 28.7% and 32.4% and 31% |
| O=c1cc(N2CCC(c3ccccc3)CC2)[nH]c(=O)[nH]1 | FFAR4 | antagonist, β-arrestin recruitment | CHO cells | 10 µM | – | inhibition | -12 ± 6% |
| Cc1cc2ncc(-c3ccccc3)nc2cc1C | TRPM8 | antagonist | HEK293 | 5 µM | relative to: control | remaining activity | 101 ± 3.95% |
| NC(=O)NOCCCCCCCCCCCC[P+](c1ccccc1)(c1ccccc1)c1ccccc1.O=C([O-])C(F)(F)F | NADH dehydrogenase [ubiquinone] iron-sulfur protein 7, mitochondrial/NADH dehydrogenase [ubiquinone] iron-sulfur protein 2, mitochondrial/MT-ND1 | complex I-dependent respiration, Seahorse XF96 | HCT-116 | 1 µM, 24 h | relative to: control | oxygen consumption rate | 76.2 ± 4.73% |
| CC(C)CNc1cc(=O)[nH]c(=O)[nH]1 | FFAR4 | agonist, β-arrestin recruitment | CHO cells | 10 µM | – | activation | 2 ± 1% |
| C=CC(=O)N1CCC(COCC(=O)N2CCN(c3nc(-c4cnc(N)nc4C(F)F)nc(N4CCOC[C@@H]4C)n3)CC2)CC1 | Serine/threonine-protein kinase N2 (PKN2, Homo sapiens, UniProt Q16513) | KINOMEscan | – | 1 µM | – | remaining binding | 94% |

Excerpt of the above:
| SMILES | target | assay | test system | conditions | scale | quantity | value |
| --- | --- | --- | --- | --- | --- | --- | --- |
| O=C(NCc1ccc(CNS(=O)(=O)c2ccccc2)cc1)c1ccccc1 | C-X-C chemokine receptor type 4 (CXCR4, Homo sapiens, UniProt P61073) | binding, inhibitor, competitive binding | MDA-MB-231 | with: biotinylated TN14003 | – | EC | 1 nM |
| Nc1ncnc2c1nc(Sc1ccc(Cl)cc1)n2[C@@H]1O[C@@H]2COP(=O)(O)O[C@H]2[C@H]1O | anti-cAMP antibody | antibody binding, competitive cAMP EIA | – | concentration not given, acetylated samples | relative to: EC50 cAMP over EC50 cpd, higher = stronger binding | relative binding affinity | 0.0005 |
| c1ccc(C(NCc2cccnc2)(c2ccccc2)c2ccccc2)cc1 | Potassium voltage-gated channel subfamily KQT member 1, with KCNE1 (KCNQ1, Homo sapiens, UniProt P51787) | IKs activation | – | 100 pM, with KCNE1 | – | G-V slope factor | 28 ± 3 mV |
